Measurements from different studies.
Every numbered part comes from another study and shows a few of its results, in no order.
Sequence of UniProt O00750 (whole entry, looked up): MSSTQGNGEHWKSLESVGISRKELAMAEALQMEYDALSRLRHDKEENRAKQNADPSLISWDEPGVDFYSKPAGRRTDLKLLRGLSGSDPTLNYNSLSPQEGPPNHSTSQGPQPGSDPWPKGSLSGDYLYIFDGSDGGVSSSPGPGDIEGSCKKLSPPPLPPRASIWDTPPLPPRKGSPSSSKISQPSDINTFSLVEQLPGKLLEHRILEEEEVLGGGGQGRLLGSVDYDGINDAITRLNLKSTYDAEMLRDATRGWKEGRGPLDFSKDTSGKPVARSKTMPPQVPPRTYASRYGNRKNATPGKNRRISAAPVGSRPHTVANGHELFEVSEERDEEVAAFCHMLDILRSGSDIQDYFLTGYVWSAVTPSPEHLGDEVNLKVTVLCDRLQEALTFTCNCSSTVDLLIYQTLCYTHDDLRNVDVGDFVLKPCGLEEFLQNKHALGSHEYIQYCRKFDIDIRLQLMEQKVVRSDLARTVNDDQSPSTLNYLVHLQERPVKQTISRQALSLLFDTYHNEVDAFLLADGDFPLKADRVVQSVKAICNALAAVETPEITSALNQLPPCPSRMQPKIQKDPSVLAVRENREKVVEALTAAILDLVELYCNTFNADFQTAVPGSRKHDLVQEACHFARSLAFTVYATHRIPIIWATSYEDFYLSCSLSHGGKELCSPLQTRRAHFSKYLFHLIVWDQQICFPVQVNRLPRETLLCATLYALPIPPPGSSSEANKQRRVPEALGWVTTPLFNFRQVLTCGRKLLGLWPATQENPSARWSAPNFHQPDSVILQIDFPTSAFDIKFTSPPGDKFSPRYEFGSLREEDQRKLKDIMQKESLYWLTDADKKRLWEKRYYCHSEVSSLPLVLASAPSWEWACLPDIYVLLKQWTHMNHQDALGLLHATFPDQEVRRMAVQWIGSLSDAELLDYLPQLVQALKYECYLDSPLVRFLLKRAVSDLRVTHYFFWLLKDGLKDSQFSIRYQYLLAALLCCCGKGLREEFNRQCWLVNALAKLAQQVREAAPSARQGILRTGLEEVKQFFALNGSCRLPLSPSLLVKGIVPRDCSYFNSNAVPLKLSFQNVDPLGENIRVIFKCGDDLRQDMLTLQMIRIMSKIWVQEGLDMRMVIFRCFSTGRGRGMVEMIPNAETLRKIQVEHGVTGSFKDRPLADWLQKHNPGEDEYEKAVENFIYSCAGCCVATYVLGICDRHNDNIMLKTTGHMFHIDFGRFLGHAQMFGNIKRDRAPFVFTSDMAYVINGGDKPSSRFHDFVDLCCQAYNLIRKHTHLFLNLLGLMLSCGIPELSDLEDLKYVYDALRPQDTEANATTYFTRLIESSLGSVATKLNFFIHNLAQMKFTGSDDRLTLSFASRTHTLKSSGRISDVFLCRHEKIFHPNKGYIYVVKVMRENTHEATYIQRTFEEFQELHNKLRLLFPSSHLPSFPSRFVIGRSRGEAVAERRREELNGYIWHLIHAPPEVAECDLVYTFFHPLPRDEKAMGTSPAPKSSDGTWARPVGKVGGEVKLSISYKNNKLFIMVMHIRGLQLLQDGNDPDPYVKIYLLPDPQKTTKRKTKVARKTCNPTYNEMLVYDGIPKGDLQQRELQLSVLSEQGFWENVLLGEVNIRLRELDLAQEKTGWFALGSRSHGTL
Sequence of UniProt Q9P2K8 (whole entry, unmodified, looked up): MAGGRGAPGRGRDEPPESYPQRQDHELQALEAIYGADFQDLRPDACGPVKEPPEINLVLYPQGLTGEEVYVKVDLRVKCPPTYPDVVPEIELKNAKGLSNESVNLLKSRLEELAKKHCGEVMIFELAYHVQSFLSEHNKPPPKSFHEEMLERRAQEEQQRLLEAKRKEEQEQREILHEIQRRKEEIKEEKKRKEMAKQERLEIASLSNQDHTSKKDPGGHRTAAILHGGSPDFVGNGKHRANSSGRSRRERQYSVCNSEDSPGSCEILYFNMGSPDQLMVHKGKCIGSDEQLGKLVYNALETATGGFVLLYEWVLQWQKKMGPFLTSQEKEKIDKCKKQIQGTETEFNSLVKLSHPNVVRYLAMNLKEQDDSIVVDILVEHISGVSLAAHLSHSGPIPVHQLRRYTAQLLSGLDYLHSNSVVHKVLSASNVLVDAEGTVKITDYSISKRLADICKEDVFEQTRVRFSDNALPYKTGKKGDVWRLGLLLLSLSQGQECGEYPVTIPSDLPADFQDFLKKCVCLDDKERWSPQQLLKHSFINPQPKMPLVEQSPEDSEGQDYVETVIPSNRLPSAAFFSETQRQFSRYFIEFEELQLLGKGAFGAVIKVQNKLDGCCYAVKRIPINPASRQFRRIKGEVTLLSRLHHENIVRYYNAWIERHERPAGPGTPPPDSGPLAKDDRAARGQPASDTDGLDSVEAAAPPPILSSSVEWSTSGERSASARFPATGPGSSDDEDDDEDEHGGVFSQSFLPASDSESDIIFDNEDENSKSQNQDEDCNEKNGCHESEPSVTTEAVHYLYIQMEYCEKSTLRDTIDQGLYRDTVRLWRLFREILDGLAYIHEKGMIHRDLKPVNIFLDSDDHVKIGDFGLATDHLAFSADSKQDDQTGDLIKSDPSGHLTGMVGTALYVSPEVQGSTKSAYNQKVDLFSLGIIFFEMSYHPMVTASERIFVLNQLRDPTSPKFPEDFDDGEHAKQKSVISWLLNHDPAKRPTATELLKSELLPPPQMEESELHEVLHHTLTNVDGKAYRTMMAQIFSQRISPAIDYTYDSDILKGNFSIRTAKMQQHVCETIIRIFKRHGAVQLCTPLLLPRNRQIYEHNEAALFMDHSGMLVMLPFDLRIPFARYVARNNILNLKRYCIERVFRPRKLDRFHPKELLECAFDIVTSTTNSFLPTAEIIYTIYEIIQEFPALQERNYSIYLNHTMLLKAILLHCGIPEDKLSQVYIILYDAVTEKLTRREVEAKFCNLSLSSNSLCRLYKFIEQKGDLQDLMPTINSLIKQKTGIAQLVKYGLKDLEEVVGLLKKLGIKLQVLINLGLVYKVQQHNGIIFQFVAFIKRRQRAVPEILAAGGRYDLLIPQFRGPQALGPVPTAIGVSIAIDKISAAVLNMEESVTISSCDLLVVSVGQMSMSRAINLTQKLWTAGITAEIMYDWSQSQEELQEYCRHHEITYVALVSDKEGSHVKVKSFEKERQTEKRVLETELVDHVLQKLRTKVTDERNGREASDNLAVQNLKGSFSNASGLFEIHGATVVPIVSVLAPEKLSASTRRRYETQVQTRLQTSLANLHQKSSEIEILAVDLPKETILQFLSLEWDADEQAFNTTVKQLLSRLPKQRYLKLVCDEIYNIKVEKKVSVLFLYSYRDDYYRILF

Study 1 — effect on: enzyme activity; mode: inhibitor; tested at: 0.5 µM; relative to: control; endpoint: remaining activity
Target: Fibroblast growth factor receptor 1 (FGFR1, Homo sapiens, UniProt P11362)
Sequence of UniProt P11362 (whole entry, looked up): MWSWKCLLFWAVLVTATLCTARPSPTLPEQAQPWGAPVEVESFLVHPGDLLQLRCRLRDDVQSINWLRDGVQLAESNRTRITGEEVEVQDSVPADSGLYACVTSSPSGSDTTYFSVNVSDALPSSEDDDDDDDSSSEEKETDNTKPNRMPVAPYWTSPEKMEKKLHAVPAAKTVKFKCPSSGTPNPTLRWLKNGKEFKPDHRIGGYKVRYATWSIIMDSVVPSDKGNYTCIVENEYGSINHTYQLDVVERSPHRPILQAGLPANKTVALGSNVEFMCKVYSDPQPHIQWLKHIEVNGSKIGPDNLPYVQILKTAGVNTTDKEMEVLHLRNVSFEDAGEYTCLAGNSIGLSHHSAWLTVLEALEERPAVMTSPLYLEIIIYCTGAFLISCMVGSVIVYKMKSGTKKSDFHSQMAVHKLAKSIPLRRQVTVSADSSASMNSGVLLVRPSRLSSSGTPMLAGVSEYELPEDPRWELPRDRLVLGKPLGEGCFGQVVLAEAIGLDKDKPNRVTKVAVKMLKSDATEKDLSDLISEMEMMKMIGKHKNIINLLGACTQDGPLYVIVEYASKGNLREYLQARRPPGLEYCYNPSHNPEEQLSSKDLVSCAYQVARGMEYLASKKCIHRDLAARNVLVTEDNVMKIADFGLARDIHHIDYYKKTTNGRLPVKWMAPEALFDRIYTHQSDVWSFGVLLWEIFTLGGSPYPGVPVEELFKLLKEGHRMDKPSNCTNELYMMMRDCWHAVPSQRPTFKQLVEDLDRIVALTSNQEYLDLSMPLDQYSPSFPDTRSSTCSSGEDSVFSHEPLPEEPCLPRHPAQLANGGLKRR
SMILES = Cc1nc(-c2ccccc2)c(-c2ccncc2)o1; value = 90.9%
SMILES = O=C(O)c1ccc2c3c1cccc3c(=O)n1c3ccccc3nc21; value = 84.7%
SMILES = O=S(=O)(c1cccc2cnccc12)N1CCCNCC1; value = 94.6%
SMILES = CNC(=O)c1cc(Oc2ccc(NC(=O)Nc3ccc(Cl)c(C(F)(F)F)c3)cc2)ccn1; value = 90.9%
SMILES = COc1ccc(C(=O)Nc2sc3c(c2C(N)=O)CCCC3)cc1OC; value = 94.8%
SMILES = Cn1sc(=O)n(Cc2ccccc2)c1=O; value = 95.6%
SMILES = O=C1NC(=O)C(c2cn(CCCn3ccnc3)c3ccccc23)=C1Nc1ccccc1; value = 78.5%

Study 2 — technique: competition protein-binding microarray; form: double-stranded DNA, one strand shown; medium: in vitro; tested at: 2 µM; with: Pho4 competitor, 0.05 µM; direction: higher = stronger binding; endpoint: fluorescence intensity; shared flanks, not repeated: … GTCTTGATTCGCTTGACGCTGCTG
Target: Centromere-binding protein 1, full length, His-tagged (CBF1, Saccharomyces cerevisiae, UniProt P17106, residues 1-351)
Sequence of UniProt P17106 (whole entry, looked up): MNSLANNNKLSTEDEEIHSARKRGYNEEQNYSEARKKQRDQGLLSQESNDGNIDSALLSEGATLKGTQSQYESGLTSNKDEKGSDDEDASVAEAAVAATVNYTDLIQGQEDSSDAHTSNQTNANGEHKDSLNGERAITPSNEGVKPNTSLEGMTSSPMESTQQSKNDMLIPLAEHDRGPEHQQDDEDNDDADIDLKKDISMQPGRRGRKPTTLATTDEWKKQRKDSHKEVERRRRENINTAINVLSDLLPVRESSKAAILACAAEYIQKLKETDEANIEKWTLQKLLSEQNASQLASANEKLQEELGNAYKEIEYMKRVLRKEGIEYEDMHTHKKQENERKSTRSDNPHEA
Notes: whole 60-bp probe, lowest competitor level
Oligonucleotide = CTTTGAACATTAAGGCACATGACAGGCTATGAGCCC; value = 468 a.u.
Oligonucleotide = AGTGTTTCAAGCCATCACGTCGACTAACGACAAAGT; value = 112 a.u.
Oligonucleotide = CTTTCCCGATCTTGAGACGTGGGTGTAGCACATTTG; value = 74.1 a.u.
Oligonucleotide = GTCTTGTCTCATTGGTAGGTGGGTGTCCCCACTTCA; value = 69 a.u.
Oligonucleotide = TTTCCACAAACTCACCACGTTGAGAGTGTGTGTATA; value = 90 a.u.
Oligonucleotide = AAATTACTAAGTTGGGCGGTGGGTGACGCCGTATGA; value = 64.3 a.u.
Oligonucleotide = CGGGGTTAAGTTTGTCACCAGACTTGCTTGCAGCAG; value = 65.5 a.u.
Oligonucleotide = CGTTTTCAGAAGTGGAATCCTGATCCAATTTGCTCT; value = 66.3 a.u.

Study 3 — technique: RNA Bind-n-Seq; form: RNA; medium: in vitro; tested at: 365 nM; relative to: no-protein control; direction: higher = stronger binding; endpoint: RBNS enrichment (R)
Target: RNA binding protein fox-1 homolog 2, RRM domain, GST-SBP tag (RBFOX2, Homo sapiens, UniProt O43251-10, residues 100-194)
Notes: natural RNA segment, single round, ends assumed
Shared flanks, not repeated: GGGAGUUCUACAGUCCGACGAUC … UGGAAUUCUCGGGUGCCAA
Construct (chain): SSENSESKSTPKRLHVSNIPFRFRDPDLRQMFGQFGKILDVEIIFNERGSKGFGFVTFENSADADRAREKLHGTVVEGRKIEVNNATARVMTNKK
Oligonucleotide = AACCAUAAGACUCUAGUCAAAAGCACUCGUGCAGAUAUGCUGCAUAUGAGUAAGAAAUUGCAAUUUUGUAAACAUUCCUCGACUUGGUGGGGAGGAAUAAUUUUAUAAUU; value = 0.851
Oligonucleotide = UGGGGGGCUUGGGAGUGUUUGUCAUGUGUCCUCAGUCCCAUGGAUUUGAAAUGACCCCUCCUCGCUGUGAGAGUCCAGAGUCUCCUGAAGUUUGUCAAUGACUGAAAUGC; value = 1.49
Oligonucleotide = GACCUGAUAAUGUUUCUAAGAAAAAGAAAAAAAGGACAAAAGGGAGGGAACCACUACCAAAAAAAAAAAAAGAAACUCCUCCCCGAAGACACUUUAAUGAAGGAAACAAC; value = 0.477
Oligonucleotide = AUGCACAGAGCUUGAGCAAAGGCAUGAAGUCCCUGACAUUGUUUUCCUUUUUGUCUCAGCAUAUAGUAUUAAGAUGCCUAGAAAUAGGACUCUAUUGUUCCCUCUUGUAU; value = 0.724
Oligonucleotide = GUCACUGGAUGCAGAAGUACCCAUUCAUCACACCUGCCCCAUAGCCCCCACUCUGCUGUACUGAUAGGAUUUAGUUGUGUUUUAGGACAUUGCAAAUCUUCUAGAAGUUC; value = 0.727
Oligonucleotide = UUAAUCCUCACAAUAACGAAGUAUGUACUACUAUAAUUGCCAGUUUACAGACGAGAAAACUAAGGCACAAAGUUUAACUUGCCCCAAGCGACAGAGUGGAUAAGUAAAAG; value = 0.438
Oligonucleotide = CCAGUUCAACUACUGGCGUCCACCGGCCGCGCCACGAACCCCUUGCCGAUCCCGAUCCCUGUCGGGCUCCUCCGACUCCUCGGGCUGGACACCGAAACCUCCCUUCUUAA; value = 0.218
Oligonucleotide = GGUAAUGUGGGAUAGUAAUCUCAGUGAAAAGCAAACAGCGCAGGGUCUUGGAAGGGUGGUCUUUAUACAGGUUUUACUGUAAUGGUAAGGAUCGACUCGAGACAGUAUUA; value = 0.589

Other studies, line by line — effect on: cell-free assay; technique: competition with immobilised ligand
Structure (SMILES) = CN([C@@H]1CCc2c(CC(=O)O)c3ccccc3n2C1)S(=O)(=O)c1ccc(F)cc1; target = eIF-2-alpha kinase GCN2, C-terminal kinase domain (EIF2AK4, Homo sapiens, UniProt Q9P2K8, S808G); conditions = 1 µM; remaining binding = 78%
Structure (SMILES) = Nc1c(C(=O)NCc2ccc(C(=O)NCCCC3CCCCC3)cc2)cnn1-c1ccccc1; target = Phosphatidylinositol 4-phosphate 3-kinase C2 domain-containing subunit beta (PIK3C2B, Homo sapiens, UniProt O00750); conditions = 0.1 µM; remaining binding = 99%

A few entries again (study 1):
SMILES = Cc1nc(-c2ccccc2)c(-c2ccncc2)o1; value = 90.9%
SMILES = O=C1NC(=O)C(c2cn(CCCn3ccnc3)c3ccccc23)=C1Nc1ccccc1; value = 78.5%
SMILES = COc1ccc(C(=O)Nc2sc3c(c2C(N)=O)CCCC3)cc1OC; value = 94.8%
